Experimental data pooled from the literature.
Numbered parts are unrelated; each lists some results of a single study.

Sample 1 — method: protein binding microarray; molecule type: double-stranded DNA, one strand shown; matrix: in vitro; concentration: not given; reference: not given; reading: higher = stronger binding; measurement: E-score
Target: Histone acetyltransferase KAT6A, winged helix 2, GST fusion (KAT6A, Homo sapiens, UniProt Q92794, residues 85-181)
Setting: 8-mer, flanks averaged, mean of 2 arrays, mostly near background
Construct (chain): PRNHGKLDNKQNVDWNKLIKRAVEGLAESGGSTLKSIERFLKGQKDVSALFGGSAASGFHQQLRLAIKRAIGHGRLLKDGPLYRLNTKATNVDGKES
CATGTAAG: -0.0869
ACCCAAAG: -0.068
AGCCCACC: -0.0385
GATGCTCC: 0.0405
GGCATGCC: 0.0753
ATAATGTC: -0.117
CTATGTAC: -0.269
GACTAGTA: -0.238
GTCTAGTA: -0.00535
CACGAGAA: 0.016
GGAAGCCC: 0.103
GACACCGA: 0.11
CTACGCGC: 0.0796
AGACCACA: 0.0957
CATGTCGC: -0.206
ACCTCAAC: -0.148
CTCTTGCA: -0.0703
CATAAGGC: 0.0241
TCGGGGCA: 0.102
GAGAAGAC: 0.0638
TGAGAACA: 0.16
CAACGCCG: 0.171
AACACCAA: -0.198
AAGTACGG: -0.0754
CGGAATAA: 0.0559

Sample 2 — method: RNA Bind-n-Seq; molecule type: RNA; matrix: in vitro; concentration: 365 nM; reference: no-protein control; reading: higher = stronger binding; measurement: RBNS enrichment (R)
Target: RNA binding protein fox-1 homolog 2, RRM domain, GST-SBP tag (RBFOX2, Homo sapiens, UniProt O43251-10, residues 100-194)
Setting: natural RNA segment, single round, ends assumed
Shared flanks, not repeated: GGGAGUUCUACAGUCCGACGAUC … UGGAAUUCUCGGGUGCCAA
Target sequence (chain): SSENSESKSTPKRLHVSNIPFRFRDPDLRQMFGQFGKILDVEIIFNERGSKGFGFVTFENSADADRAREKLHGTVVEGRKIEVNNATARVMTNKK
GCUACUCUCAUACAGGGGACCCGUAUUUUAAAAUCUCCAGACUUGCUUACAUCUAGAUUAUCCAGCACAAUCAUAAAGUGAAUGACAAACCCUUUGAAUGAAAUUGUGGC: 0.737
GUUACUUGCGGUCUUUUUAAAUUGAGGAGCCCCACUUCCACUGUCCACCCCUUGUCUUUGUGUGUCAGGUGAUCAUUGAAAUCGUAUCUUGAGCUUGAAUUCACUUCUCU: 0.812
GGCUUUUGGCCCUUGGCCAGAAGUGCAUGCUUUUCCUGAGCAGAGCACUUAGCAACCUUCCCCUCUCACGGAGCUGCUGUCCUCCAGAUGGGUGCUAAUGGGAUUGGGCU: 0.658
ACCAUUGUGUAGGGGGCUGUGUCUGAUCUUGGUGUUCAAAACAGAACUGUAUUUUUGCCUUUAAAAUUAAAUAAUAUAACGUGAAUAAAUGACCCUAUCUUUGUAACUGC: 0.505
GGAUUGACAUUGGAUGGGGGAGGUAGGAGGCACAUCAAUAAAAAGGAAACCACCGAGCUGAAUUGAAUUUGCCCUGUGUCAUUCCACCUCCUGGUUUUUUGUUUCAAGUA: 0.713
UAUUACAAGCUGCAUGUCCUGACCCUCUUUGAAUUAAGUGGACUGUGGCAUGACAUUCUGCAAUACUUUGCUGAAUUGAACACUAUUGUGUCUUAAAUACUUGCACUAAA: 0.723
GGCCAUUUUUAAAACUUAAAAACUCAACACCUCACAGAUUAUAAUAGAAAAAGAAAUGGCCUCAGUUUGAUCUCGUUCAGAAUGACCCAGAUUGUUUCUGCUUUGGGUGC: 0.674
UAAUAUGGCGCUCCUGAUCUAUCUUACUCAAGUGCCCUCCCAUAUGUAUACCCCAACAUCUUUUCCAUCUUAAUCCAGCAUCGGGCCAUUCUCAAUCCCUGGUAAUCACC: 1.22
UUGCCCUGAAGUCUUACCUUCUCCCAUUGCAUUCAAGGCCUAUAGCACAAAGUGCAUCUCAGAGAUGUGCUAGUGGCUUAUCCUGGGCUUGGCCUGCAACAUGGGAGGCU: 0.336
CUCGUUUGAGCCUGAAGCACUGGGCAACCUGGUUGAAGGGAUGGACUUCCACAGAUUCUACUUCGAGAACGUGCUGGCCAAGAACAGCAAGCCGAUCCACACGACCAUCC: 0.428
CUUGAAAAUUAAAUAUUGAUUUGUUUCACUAUUGAUGGGAAGAAGGGGAAUAAAGACUUGCAUAGGUUGUGUAGGUCAUUCCUCCGAAACAUAACAGGCUUCUCUUAGCU: 0.212
GCUUUUUUCACAUGUUUUAUGGAAUUGUUCACAUGAUUUGAAAUAAUAAAAUGUAGAAAGAAAACACAAAAACUUCCGUGUUCUUUUCUCCUGGGGACUGAGCAAGAAGA: 1.16

Sample 3 — method: RNA Bind-n-Seq; molecule type: RNA; matrix: in vitro; concentration: 200 nM; setting: whole 134-nt RNA, ends assumed; together with: 150 mM LiCl; reference: input library; reading: higher = stronger binding; measurement: log2 enrichment; library: 7-deaza-guanosine replaces G
Target: Fragile X messenger ribonucleoprotein 1, C-terminal low-complexity region (Fmr1, Mus musculus, UniProt P35922)
Shared flanks, not repeated: GGGAGUUCUACAGUCCGACGAUC … UGGAAUUCUCGGGUGUCAAGG
CAAGUCCUGUGCUACACAUCGUAUGUACCGAAUCGGCCCGGGCCCGGGCCCGGGGAAAGUAUUAUGUUACGCCGUUCGGAUCUGCACUUC: -2.96
UGGGAGGUGGAUUUUGUUUAUUUUUUUAGCUCAUUUCCAGGGGUGGGAAUUUUUUUUUAAUAUGUGUCAUGAAUCAAGUUGUUUUUGAAA: 0.527
UCCUGUGCUACACAUCGUAUGUACCGAAUCGGGUUUUUUGGGGUUUUUUGGGUUUUUUGGAAAGUAUUAUGUUACGCCGUUCGGAUCUGC: 0.226
UCAAGUCCUGUGCUACACAUCGUAUGUACCGAAUCGGGUUGGGGUUGGGUUGGGGAAAGUAUUAUGUUACGCCGUUCGGAUCUGCACUUC: -0.111
UCCUGUGCUACACAUCGUAUGUACCGAAUCGGGGAGGGGUUUUUUUGGGGUUUUUGGGGAAAGUAUUAUGUUACGCCGUUCGGAUCUGCA: 0.301
UCAAGUCCUGUGCUACACAUCGUAUGUACCGAAUCGGGUUUGGUUUGGUUUGGGGAAAGUAUUAUGUUACGCCGUUCGGAUCUGCACUUC: -1.46
CUGUGCUACACAUCGUAUGUACCGAAUCGGGGAAAAAAAGGAAAAAAAGGGAAAAAAAGGGGAAAGUAUUAUGUUACGCCGUUCGGAUCU: 0.523
UCCUCAAGUCCUGUGCUACACAUCGUAUGUACCGAAUCGGGGAGGAGGAGGGAAAGUAUUAUGUUACGCCGUUCGGAUCUGCACUUCCAG: -0.711
CCUGUGCUACACAUCGUAUGUACCGAAUCGGGGAAAGGGGUUUUUGGGGUUUUUUUGGGGAAAGUAUUAUGUUACGCCGUUCGGAUCUGC: 0.326
AAGUCCUGUGCUACACAUCGUAUGUACCGAAUCGGGUUUUGGUUUUGGUUUUGGGGAAAGUAUUAUGUUACGCCGUUCGGAUCUGCACUU: -1.82
GCAGGAAGUAAAAACAAAUGGAAAUGCUUCGGAUAGUGGCAGGGGUGGGGGUUGCUAAGGCAAGGGUGGGAUGGGAGUGGGUAAAGAGUU: 1.26

Sample 4 — method: protein-binding microarray; molecule type: double-stranded DNA, one strand shown; matrix: in vitro; concentration: 2540 nM top; setting: 60-bp whole probe; together with: salmon DNA 0.4 mg/ml; reference: random background probes; reading: higher = stronger binding; measurement: fitted relative affinity; shared flanks, not repeated: GCCTAGCAC … GTCTTGATTCGCTTGACGCTGCTG
Target: Interferon regulatory factor 3, full length, phosphomimetic (IRF3, Homo sapiens, UniProt Q14653, residues 1-427, S386D/S396D/S398D/S402D/T404D/S405D)
Residues (chain): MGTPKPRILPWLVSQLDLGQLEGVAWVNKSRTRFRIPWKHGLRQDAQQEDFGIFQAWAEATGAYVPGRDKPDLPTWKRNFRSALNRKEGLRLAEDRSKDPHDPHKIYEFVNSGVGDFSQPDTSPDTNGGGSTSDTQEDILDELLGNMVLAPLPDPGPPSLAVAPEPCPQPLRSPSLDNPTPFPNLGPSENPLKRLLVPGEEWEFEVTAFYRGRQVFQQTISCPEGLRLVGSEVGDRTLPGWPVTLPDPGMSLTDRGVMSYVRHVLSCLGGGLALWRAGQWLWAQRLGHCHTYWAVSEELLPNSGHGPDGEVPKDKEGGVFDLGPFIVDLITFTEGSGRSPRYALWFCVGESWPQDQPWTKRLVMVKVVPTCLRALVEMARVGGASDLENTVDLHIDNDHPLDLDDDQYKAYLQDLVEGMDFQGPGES
GACGATATAAGTATCGAGACGTGCTAG: 0.313 z-score
TTAGATATAAGACTGGATTAGTGCTAG: -0.436 z-score
TTAGGACTGGCCTTTCGGTTAGTGCTA: -0.294 z-score
TTCGGTTTCGGACTGGGTTAGTGCTAG: 5.15 z-score
TTAGGACTGATACTGCTTTAGTGCTAG: -0.0329 z-score
GACGGTCTCGGTTTCGGGACGTGCTAG: 4.07 z-score
GACGGTATCGGGACTGGGGACGTGCTA: 1.8 z-score
GACGCTATCGGGACTGGAGACGTGCTA: -0.0505 z-score
TTAGAACTGAGTATCGGTTAGTGCTAG: 0.877 z-score
GGTCCTCTAGGAATGTAACTGTGCTAG: 0.15 z-score
GACGGACTGGACACTGCGGACGTGCTA: -0.668 z-score
TTAGATTTGAGTTTCGATTAGTGCTAG: 2.8 z-score
GACGGACTGCTTATCCTCACGTGCTAG: -0.306 z-score
TTAGGACTGAGACTGGGTTAGTGCTAG: -0.716 z-score
GACGGTATCGGTACTGGGGACGTGCTA: 3.53 z-score
GCCTCTAGGTTTTCTGGAGACGTGCTA: -0.374 z-score
TCAGGTCTTCACTTGGCACTGTGCTAG: -0.13 z-score
TTTTTTTTTTTTTACTTCGGGTGCTAG: 1.79 z-score
GACGGTTTCCTTCTCCTGCCGTGCTAG: 9.08 z-score
TCACCTGTGCTATTTATAACTGTGCTA: 0.372 z-score
TCAAAATTGTCTCTGTCACTGTGCTAG: -0.124 z-score
TTAGATTACGGGTATCGATTAGTGCTA: 0.416 z-score
TTAGGTTCCGGCTTCGGTTAGTGCTAG: 1.84 z-score
CTGAGAATGGGGTTTGCAGCCGTGCTA: -1.02 z-score
GACGGTATCGGGCTGGGGACGTGCTAG: 0.536 z-score

For quick reference, copied from above (sample 2):
GCUACUCUCAUACAGGGGACCCGUAUUUUAAAAUCUCCAGACUUGCUUACAUCUAGAUUAUCCAGCACAAUCAUAAAGUGAAUGACAAACCCUUUGAAUGAAAUUGUGGC: 0.737
GUUACUUGCGGUCUUUUUAAAUUGAGGAGCCCCACUUCCACUGUCCACCCCUUGUCUUUGUGUGUCAGGUGAUCAUUGAAAUCGUAUCUUGAGCUUGAAUUCACUUCUCU: 0.812
GGCUUUUGGCCCUUGGCCAGAAGUGCAUGCUUUUCCUGAGCAGAGCACUUAGCAACCUUCCCCUCUCACGGAGCUGCUGUCCUCCAGAUGGGUGCUAAUGGGAUUGGGCU: 0.658
ACCAUUGUGUAGGGGGCUGUGUCUGAUCUUGGUGUUCAAAACAGAACUGUAUUUUUGCCUUUAAAAUUAAAUAAUAUAACGUGAAUAAAUGACCCUAUCUUUGUAACUGC: 0.505
GGAUUGACAUUGGAUGGGGGAGGUAGGAGGCACAUCAAUAAAAAGGAAACCACCGAGCUGAAUUGAAUUUGCCCUGUGUCAUUCCACCUCCUGGUUUUUUGUUUCAAGUA: 0.713
UAUUACAAGCUGCAUGUCCUGACCCUCUUUGAAUUAAGUGGACUGUGGCAUGACAUUCUGCAAUACUUUGCUGAAUUGAACACUAUUGUGUCUUAAAUACUUGCACUAAA: 0.723
GGCCAUUUUUAAAACUUAAAAACUCAACACCUCACAGAUUAUAAUAGAAAAAGAAAUGGCCUCAGUUUGAUCUCGUUCAGAAUGACCCAGAUUGUUUCUGCUUUGGGUGC: 0.674
UAAUAUGGCGCUCCUGAUCUAUCUUACUCAAGUGCCCUCCCAUAUGUAUACCCCAACAUCUUUUCCAUCUUAAUCCAGCAUCGGGCCAUUCUCAAUCCCUGGUAAUCACC: 1.22
UUGCCCUGAAGUCUUACCUUCUCCCAUUGCAUUCAAGGCCUAUAGCACAAAGUGCAUCUCAGAGAUGUGCUAGUGGCUUAUCCUGGGCUUGGCCUGCAACAUGGGAGGCU: 0.336
CUCGUUUGAGCCUGAAGCACUGGGCAACCUGGUUGAAGGGAUGGACUUCCACAGAUUCUACUUCGAGAACGUGCUGGCCAAGAACAGCAAGCCGAUCCACACGACCAUCC: 0.428
CUUGAAAAUUAAAUAUUGAUUUGUUUCACUAUUGAUGGGAAGAAGGGGAAUAAAGACUUGCAUAGGUUGUGUAGGUCAUUCCUCCGAAACAUAACAGGCUUCUCUUAGCU: 0.212
GCUUUUUUCACAUGUUUUAUGGAAUUGUUCACAUGAUUUGAAAUAAUAAAAUGUAGAAAGAAAACACAAAAACUUCCGUGUUCUUUUCUCCUGGGGACUGAGCAAGAAGA: 1.16
